{"data": "Measured values collected from several papers", "note": "Numbered parts are unrelated; each lists some results of a single study. Several values in a cell are separate wells, animals, samples, runs or records."}
{"data": "Sample 1", "SMILES": "[N-]=[N+]=CC(=O)CC[C@H](N)C(=O)O", "species": "mouse, EL4 tumour", "route": "intravenous", "dose": "1 mg/kg"}
{"conditions": "day 18", "tumour volume": "0 mm3"}
{"conditions": "day 16", "tumour volume": "0 mm3"}
{"conditions": "day 10", "tumour volume": "316 mm3 and 79 mm3 and 218 mm3 and 122 mm3 and 73.9 mm3 and 569 mm3 and 44.5 mm3"}
{"conditions": "day 9", "tumour volume": "374 mm3 and 124 mm3 and 890 mm3 and 114 mm3 and 218 mm3 and 585 mm3 and 320 mm3 and 211 mm3"}
{"conditions": "day 14", "tumour volume": "0 mm3 and 249 mm3 and 274 mm3 and 111 mm3"}
{"data": "Sample 2", "cell line": "HEK-293T-ACE2-TMPRSS2", "technique": "cell count", "tested at": "concentration not given"}
{"SMILES": "CC(Cc1ccsc1)Nc1ncnc2sccc12 (stereo not drawn)", "viability": "84%"}
{"SMILES": "O=C(NCCN1CCCCC1)C1CCc2ncc(-c3ccc(F)cc3)n2C1 (stereo not drawn)", "viability": "82%"}
{"SMILES": "O=C(NCCc1nc2ccccc2[nH]1)c1cc(COc2ccccc2)[nH]n1", "viability": "72%"}
{"SMILES": "Cc1ccc(CS(=O)(=O)c2ncc(Cl)c(C(=O)N3CCN(C)CC3)n2)cc1", "viability": "77%"}
{"SMILES": "Clc1ccc2c(Sc3nnnn3C3CCCC3)ccnc2c1", "viability": "81%"}
{"SMILES": "Cc1nc2ccccc2n(Cc2ccc(C(=O)NC3CCN(Cc4ccccc4)CC3)cc2)c1=O", "viability": "74%"}
{"SMILES": "O=S1(=O)C=C(Br)c2ccccc21", "viability": "68%"}
{"SMILES": "CCS(=O)(=O)c1ncc(Cl)c(C(=O)Nc2ccc(S(=O)(=O)N3CCCCC3)cc2)n1", "viability": "77%"}
{"SMILES": "COc1ccc2c(c1)CC(C(=O)N1CCC(CCC(=O)Nc3ccccc3)CC1)CO2 (stereo not drawn)", "viability": "111%"}
{"SMILES": "C=C1C(=O)O[C@H]2[C@H]1CC/C(C)=C\\CC[C@@]1(C)O[C@@H]21", "viability": "91%"}
{"SMILES": "COc1ccc(CNCCC(Cc2ccccc2)c2ccco2)cc1 (stereo not drawn)", "viability": "241%"}
{"SMILES": "Cc1ccc(CN2CCC(CNC(=O)C3CCN(c4ccc(-c5cccs5)nn4)CC3)C2)cc1 (stereo not drawn)", "viability": "90%"}
{"SMILES": "COc1ccc(CCNC(=O)c2ccc(CN3CCc4ccccc4C3)cc2)cc1OC", "viability": "67%"}
{"SMILES": "Cc1ccnc(CC(C)N(C)C(=O)c2cc3ccccc3s2)c1 (stereo not drawn)", "viability": "73%"}
{"SMILES": "COc1ccccc1N1CCN(C(=O)c2nc(S(=O)(=O)Cc3ccccc3)ncc2Cl)CC1", "viability": "77%"}
{"SMILES": "O=C(c1cscn1)N1CCc2c([nH]c3ccccc23)C1c1ccccc1F (stereo not drawn)", "viability": "105%"}
{"SMILES": "Cc1ccc(-c2nccn2-c2cccc(-c3nnc(C)s3)c2)o1", "viability": "77%"}
{"SMILES": "CS(=O)(=O)c1ncc(Cl)c(C(=O)Nc2ccccc2Cc2ccccc2)n1", "viability": "71%"}
{"SMILES": "Cc1ccc(C(=O)C2=C(O)C(=O)N(CC(C)C)C2c2cccc(O)c2)cc1 (stereo not drawn)", "viability": "67%"}
{"SMILES": "COc1ccc(CCNc2ncnc3c2oc2ccccc23)cc1OC", "viability": "66%"}
{"SMILES": "Cn1ccnc1C(Nc1ncnc2c1cnn2-c1ccc(F)cc1)c1ccccc1 (stereo not drawn)", "viability": "69%"}
{"SMILES": "Cc1ccc2c(=O)c(C(=O)Nc3ccccc3)cn(CC(=O)NC3CCCC3)c2n1", "viability": "78%"}
{"SMILES": "O=C1CCCN1c1ccc(Cn2nc3c(S(=O)(=O)N4CCCC4)cccn3c2=O)cc1", "viability": "113%"}
{"SMILES": "COc1ccc(C2(C(=O)N3CCC(Cc4nc(-c5ccc(F)cc5)no4)CC3)CC2)cc1", "viability": "65%"}
{"SMILES": "O=C(c1cc(COc2cccc3cccnc23)on1)N1CCN(C2CCCC2)CC1", "viability": "104%"}
{"data": "Sample 3", "cell line": "HEK-293T/ACE2", "technique": "Hoechst nuclei count", "tested at": "concentration not given", "time": "16 (unit not given)", "baseline": "vehicle"}
{"Structure (SMILES)": "C[C@]12C=CC(=O)N[C@@H]1CC[C@@H]1[C@@H]2CC[C@]2(C)[C@@H](C(=O)Nc3cc(C(F)(F)F)ccc3C(F)(F)F)CC[C@@H]12", "viability": "106%"}
{"Structure (SMILES)": "CCCCCCCCCC(=O)O[C@H]1CC[C@H]2[C@@H]3CCC4=CC(=O)CC[C@@H]4[C@H]3CC[C@]12C", "viability": "106%"}
{"Structure (SMILES)": "CNC(=O)c1cc(Oc2ccc(NC(=O)Nc3ccc(Cl)c(C(F)(F)F)c3)cc2)ccn1", "viability": "89.5% and 90%"}
{"Structure (SMILES)": "C=C(c1ccc(C(=O)O)cc1)c1cc2c(cc1C)C(C)(C)CCC2(C)C", "viability": "102%"}
{"Structure (SMILES)": "O=c1ccc2ccc(OCCCCN3CCN(c4cccc5sccc45)CC3)cc2[nH]1", "viability": "99.9%"}
{"Structure (SMILES)": "CC(=O)O[C@]1(C(C)=O)CC[C@H]2[C@@H]3C=C(C)C4=CC(=O)CC[C@]4(C)[C@H]3CC[C@@]21C", "viability": "97%"}
{"Structure (SMILES)": "C[C@]12CCC3=C4CCC(=O)C=C4CC[C@H]3[C@@H]1CC[C@@]2(O)CC#N", "viability": "108%"}
{"Structure (SMILES)": "CCOC(=O)c1ncn2c1CN(C)C(=O)c1cc(F)ccc1-2", "viability": "98.2%"}
{"Structure (SMILES)": "CNCC(O)c1ccc(OC(=O)C(C)(C)C)c(OC(=O)C(C)(C)C)c1 (stereo not drawn)", "viability": "100%"}
{"Structure (SMILES)": "CC(=O)N[C@H]1[C@H]([C@H](O)[C@H](O)CO)OC(C(=O)O)=C[C@@H]1N=C(N)N", "viability": "106%"}
{"Structure (SMILES)": "Cc1[nH]cnc1CN1CCc2c(c3ccccc3n2C)C1=O", "viability": "105%"}
{"Structure (SMILES)": "CCCNS(=O)(=O)Nc1ncnc(OCCOc2ncc(Br)cn2)c1-c1ccc(Br)cc1", "viability": "98.3%"}
{"Structure (SMILES)": "CN(C)CC/C=C1/c2ccccc2Sc2ccc(Cl)cc21", "viability": "98.1%"}
{"Structure (SMILES)": "CCc1c2c(nc3ccc(OC(=O)N4CCC(N5CCCCC5)CC4)cc13)-c1cc3c(c(=O)n1C2)COC(=O)[C@]3(O)CC", "viability": "83.1%"}
{"Structure (SMILES)": "CN1CCC(=C2c3ccccc3CCc3cccnc32)CC1", "viability": "97.6%"}
{"Structure (SMILES)": "C[C@@H](O[C@H]1OCCN(Cc2n[nH]c(=O)[nH]2)[C@H]1c1ccc(F)cc1)c1cc(C(F)(F)F)cc(C(F)(F)F)c1", "viability": "96.1%"}
{"Structure (SMILES)": "CCc1nn(CCCN2CCN(c3cccc(Cl)c3)CC2)c(=O)n1CCOc1ccccc1", "viability": "96.4%"}
{"Structure (SMILES)": "CCOC(=O)[C@H](CCc1ccccc1)N[C@@H](C)C(=O)N1[C@H](C(=O)O)C[C@@H]2CCC[C@@H]21", "viability": "103%"}
{"Structure (SMILES)": "Nc1ncn([C@H]2C[C@H](O)[C@@H](CO)O2)c(=O)n1", "viability": "97.7%"}
{"Structure (SMILES)": "C[C@]12COC(=O)C[C@@H]1CC[C@@H]1[C@@H]2CC[C@@]2(C)[C@H]1CC[C@]2(C)O", "viability": "105%"}
{"Structure (SMILES)": "CCOC(=O)c1ccc(C#Cc2ccc3c(c2)C(C)(C)CCS3)nc1", "viability": "95.5%"}
{"data": "Sample 4", "species": "human", "medium": "microsomes or S9", "tested at": "2 µM", "time": "0.5 h"}
{"Structure (SMILES)": "Cc1c(C)n(CCN2CCOCC2)c2nc3c(c(N)c12)CCCC3", "remaining compound": "67.2%"}
{"Structure (SMILES)": "CCOc1cc2c(cc1OCC)-n1cccc1C(c1ccccc1OC)NC2 (stereo not drawn)", "remaining compound": "78.5%"}
{"Structure (SMILES)": "COc1cc(Cn2c(=O)[nH]c(O)c(C(C)=O)c2=O)cc(OC)c1", "remaining compound": "5.28%"}
{"note": "A few entries again (sample 3):"}
{"Structure (SMILES)": "CCCCCCCCCC(=O)O[C@H]1CC[C@H]2[C@@H]3CCC4=CC(=O)CC[C@@H]4[C@H]3CC[C@]12C", "viability": "106%"}
{"Structure (SMILES)": "CNC(=O)c1cc(Oc2ccc(NC(=O)Nc3ccc(Cl)c(C(F)(F)F)c3)cc2)ccn1", "viability": "89.5% and 90%"}
{"Structure (SMILES)": "C=C(c1ccc(C(=O)O)cc1)c1cc2c(cc1C)C(C)(C)CCC2(C)C", "viability": "102%"}
{"Structure (SMILES)": "O=c1ccc2ccc(OCCCCN3CCN(c4cccc5sccc45)CC3)cc2[nH]1", "viability": "99.9%"}
{"Structure (SMILES)": "CC(=O)O[C@]1(C(C)=O)CC[C@H]2[C@@H]3C=C(C)C4=CC(=O)CC[C@]4(C)[C@H]3CC[C@@]21C", "viability": "97%"}
